Published values collected from several papers.
Numbered parts are unrelated; each lists some results of a single study. Several values in a cell are separate wells, animals, samples, runs or records.

Block 1
Target: Myosin light chain kinase 2, skeletal/cardiac muscle (MYLK2, Homo sapiens, UniProt Q9H1R3)
Chain of UniProt Q9H1R3 (whole entry, looked up): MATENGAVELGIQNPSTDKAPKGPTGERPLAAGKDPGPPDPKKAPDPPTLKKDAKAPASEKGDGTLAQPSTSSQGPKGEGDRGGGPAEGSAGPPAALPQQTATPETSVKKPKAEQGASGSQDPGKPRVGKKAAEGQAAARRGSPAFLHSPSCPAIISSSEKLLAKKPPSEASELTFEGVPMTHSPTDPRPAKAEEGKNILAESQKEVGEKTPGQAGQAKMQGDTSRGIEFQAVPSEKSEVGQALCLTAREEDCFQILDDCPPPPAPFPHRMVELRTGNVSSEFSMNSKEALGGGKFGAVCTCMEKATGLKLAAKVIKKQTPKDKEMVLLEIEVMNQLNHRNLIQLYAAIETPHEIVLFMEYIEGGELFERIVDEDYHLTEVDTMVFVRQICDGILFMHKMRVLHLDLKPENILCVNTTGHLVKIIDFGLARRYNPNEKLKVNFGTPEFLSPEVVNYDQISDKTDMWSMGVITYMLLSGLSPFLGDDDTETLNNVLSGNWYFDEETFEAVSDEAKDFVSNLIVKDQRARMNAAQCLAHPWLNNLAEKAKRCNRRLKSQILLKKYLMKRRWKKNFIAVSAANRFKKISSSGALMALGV
Effect on: enzyme activity
Mode: inhibitor
Concentration: 0.5 µM
Relative to: control
Quantity: remaining activity
C[S+]([O-])c1ccc(-c2nc(-c3ccncc3)c(-c3ccc(F)cc3)[nH]2)cc1 (stereo not drawn): 99.9%
CC(C)[C@H](CO)Nc1nc(Nc2cccc(Cl)c2)c2ncn(C(C)C)c2n1: 97.1%
Cn1cnc2cc3c(Nc4cccc(Br)c4)ncnc3cc21: 87.6%
CC(C)c1nn(-c2c(Cl)cccc2Cl)c2nc(Cc3ccc(OCCO)cc3)[nH]c(=O)c12: 96.6%
O=C1NC(=O)/C(=C/c2ccc3nccnc3c2)S1: 97.2%
CS(=O)(=O)CCNCc1ccc(-c2ccc3ncnc(Nc4ccc(OCc5cccc(F)c5)c(Cl)c4)c3c2)o1: 108%
Nc1[nH]nc2nnc(-c3c(-c4ccccc4)nn4ccccc34)cc12: 101%
O=C(Nc1ccc(Cl)cc1)c1ccccc1NCc1ccncc1: 99.5%
COc1cc2ncnc(N3CCN(C(=O)Nc4ccc(Oc5ccccc5)cc4)CC3)c2cc1OC: 94.6%
COc1cc2ncc(-c3ccccc3)nc2cc1OC: 100%
CN(C)CCCn1cc(C2=C(c3c[nH]c4ccccc34)C(=O)NC2=O)c2ccccc21: 73.9%
CCC(=O)Nc1ccc2ncnc(Nc3cccc(Br)c3)c2c1: 96.4%
CCOc1cc2ncnc(Nc3cccc(Br)c3)c2cc1OCC: 93.5%
CC(=O)O/N=C1/C(c2c(O)[nH]c3cc(Br)ccc23)=Nc2ccccc21: 55%
Cc1ccc(NC(=O)c2ccc(CN3CCN(C)CC3)cc2)cc1Nc1nccc(-c2cccnc2)n1: 102%
Cc1nc(Nc2ncc(C(=O)Nc3c(C)cccc3Cl)s2)cc(N2CCN(CCO)CC2)n1: 97.3%
CCN1/C(=C/C(C)=O)Sc2ccc(OC)cc21: 95.1%
O=c1cc(N2CCOCC2)oc2c1ccc1ccccc12: 97.7%
Cn1cc(/C=C2\C(=O)Nc3ccc(S(N)(=O)=O)cc32)c2ccccc21: 53.6%
COc1cc2ncnc(Nc3ccc(OCc4ccccc4)cc3)c2cc1OC: 97.5%
COc1ccc(Cl)cc1NC(=O)Nc1cc(C)nc2ccccc12: 99.3%
COc1ccc(-c2cnc3c(-c4ccsc4)cnn3c2)cc1: 75.6%

Block 2
Cell line: A-375
Concentration: 100 µM
Time: 18 h
Quantity: viability
CC(=O)OCC(=O)[C@@]12OC(C)(C)O[C@@H]1C[C@H]1[C@@H]3C[C@H](F)C4=CC(=O)C=C[C@]4(C)[C@@]3(F)[C@@H](O)C[C@@]12C: 103%
O=C(O[C@H]1CN2CCC1CC2)N1CCc2ccccc2[C@@H]1c1ccccc1: 8.9%
N[C@@H](CCC(=O)N[C@@H](CS)C(=O)NCC(=O)O)C(=O)O: 92.1%
CC[C@H](C)[C@H](N)C1=N[C@H](C(=O)N[C@@H](CC(C)C)C(=O)N[C@H](CCC(=O)O)C(=O)N[C@H](C(=O)N[C@H]2CCCCNC(=O)[C@H](CC(N)=O)NC(=O)[C@@H](CC(=O)O)NC(=O)[C@H](Cc3cnc[nH]3)NC(=O)[C@@H](Cc3ccccc3)NC(=O)[C@H]([C@@H](C)CC)NC(=O)[C@@H](CCCN)NC2=O)[C@@H](C)CC)CS1: 88%
C#C[C@]1(O)CC[C@H]2[C@@H]3CCC4=C(CCC(=O)C4)[C@H]3CC[C@@]21C: 59.6%
Oc1ccc(OCc2ccccc2)cc1: 65.7%
CO/N=C(\C(=O)N[C@@H]1C(=O)N2C(C(=O)O)=C(COC(C)=O)CS[C@H]12)c1csc(N)n1: 104%
COc1cc([C@H]2Oc3cc([C@H]4Oc5cc(O)cc(O)c5C(=O)[C@@H]4O)ccc3O[C@@H]2CO)ccc1O: 91.7%

Block 3
Target: Translocator protein (Tspo, Rattus norvegicus, UniProt P16257)
Chain of UniProt P16257 (whole entry, looked up): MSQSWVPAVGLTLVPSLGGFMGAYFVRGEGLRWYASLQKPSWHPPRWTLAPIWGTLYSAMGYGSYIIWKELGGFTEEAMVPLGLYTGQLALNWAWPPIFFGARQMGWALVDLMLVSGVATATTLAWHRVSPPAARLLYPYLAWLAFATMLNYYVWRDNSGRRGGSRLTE
Effect on: radioligand binding
Technique: radioligand displacement
Concentration: 10 µM
Quantity: inhibition
CC(C)(C)OC(=O)N1CCCC1CNC1CCC(c2cc(F)ccc2F)(S(=O)(=O)c2ccc(Cl)cc2)CC1 (stereo not drawn): -11.2%
CN(C)C(=O)Cn1cc(-c2nc([C@@](C)(c3ccc(-c4cnc(N)nc4)cc3)C3CC3)no2)cn1: 1.51%
CN1CCN(c2ccnc(NCCc3ccccc3)n2)CC1: -0.34%
CN1CCN(c2cnc3c(C4CCN(C(=O)c5ccc(OC(F)(F)F)cc5N)CC4)ncnc3c2)CC1: -10.4%
Nc1cnc(N2CCc3cc(S(=O)(=O)Nc4c(F)cc(Cl)cc4F)cc(N4CCCC4=O)c32)nc1: -2.65%
O=C(NNS(=O)(=O)c1ccccc1)c1cc(-c2ccnnc2)ccc1F: -3.6%
Cc1cc2c(-c3ccco3)cnc(N[C@@H]3CCN(C)C[C@H]3C(=O)NC3CCCCC3)c2[nH]c1=O: 3.9%
COc1cc(N[C@@H]2CCCC[C@]2(O)C(F)(F)F)ccc1F: -1.71%
COc1cc(-c2cn(C3CCc4ccccc4N(CC(F)(F)F)C3=O)nn2)ccc1-n1ccc(C)n1 (stereo not drawn): 59.5%
NS(=O)(=O)c1cc(NC(=O)Cc2ccccc2)ccc1Oc1cccc(Cl)c1: 5.06%
Nc1nc(NCc2ccccc2)nc(-c2ccccc2CO)n1: 12.9%
CNC(=O)c1cc(C(=O)N[C@H]2[C@@H]3COC[C@@H]32)cc2c1O[C@H](CF)[C@H]2c1ccccc1: 9.06%
COc1ccc2c(O[C@@H]3C[C@H]4C(=O)N[C@]5(C(=O)O)CC5/C=C\CCCCC[C@H](NC(=O)OC5CCCC5)C(=O)N4C3)cc(-c3csc(NC(=O)C(C)C)n3)nc2c1C (stereo partly drawn): -18.6%
Cc1c(NC(=O)c2cc(C(N)=O)nc3cc(F)ccc23)c(C(F)(F)F)nn1Cc1ccc(C#N)cc1: -1.8%
CNC(=O)c1ccc(Nc2ncc(C(F)(F)F)c(NCc3nccnc3N(C)S(C)(=O)=O)n2)cc1: 31.4%
CN1CCN(C(=O)C(C)(C)c2ccc(C(=O)Nc3cn4cc(-c5cc(C(C)(C)C)cc(C(C)(C)C)c5)ccc4n3)cc2)CC1: -6.1%
CS(=O)(=O)c1cc(C2(NC(=O)c3cncc4c3cnn4-c3ccc(F)cc3)CC2)ccn1: 17.9%
C[C@H](c1ccc(F)cc1)N(Cc1ccc(Cl)c(C(=O)O)c1)C(=O)c1cnc2ccccc2c1: -9.88%

Block 4
Cell line: mouse MPNST tumor cells
Technique: high-content immunofluorescence imaging
Item: nuclear SOX9
Concentration: 10 µM
Time: 12 h
Setting: mean of 2 replicates
Relative to: DMSO control
Direction: higher = more nuclear SOX9
Quantity: nuclear SOX9 intensity
Nc1nc(=O)n([C@@H]2CS[C@H](CO)O2)cc1F: 102 % of DMSO
CCN(CCCc1ccccc1)CCCc1ccccc1: 210 % of DMSO
C[C@]12C[C@H](O)[C@H]3[C@@H](CCC4=CC(=O)CC[C@@]43C)[C@@H]1CC[C@@H]2C(=O)CO: 81.6 % of DMSO and 85.5 % of DMSO
CC(C(=O)O)c1ccc2c(c1)[nH]c1ccc(Cl)cc12 (stereo not drawn): 80.4 % of DMSO
CNC(=C[N+](=O)[O-])NCCSCc1csc(CN(C)C)n1: 94.6 % of DMSO and 94.1 % of DMSO
c1coc(CNc2ncnc3nc[nH]c23)c1: 114 % of DMSO
O=C(O)C1(C(=O)O)CCC1.[NH2-].[NH2-].[Pt+2]: 97.3 % of DMSO
CNC(=O)c1ccc(C)c(-n2c(C)cc(OCc3ccc(F)cc3F)c(Br)c2=O)c1: 104 % of DMSO
CN1C(=O)N(c2cc(Cl)cc(Cl)c2)C(=O)[C@@]1(C)Cc1ccc(Br)cc1: 114 % of DMSO
O=C(Nc1ccccc1)N1CCC(Cc2cnc3ccccc3c2)CC1: 118 % of DMSO
O=S(=O)(c1cccc2c(Cl)cccc12)N1CCCNCC1: 194 % of DMSO
CCn1cc(C(=O)O)c(=O)c2cc(F)c(N3CCNC(C)C3)c(F)c21 (stereo not drawn): 108 % of DMSO
